{"data": "Measurements collected from several papers", "note": "Every numbered part comes from another study and shows a few of its results, in no order."}
{"data": "Series 1", "target": "Histone acetyltransferase KAT6A, winged helix 1, GST fusion (KAT6A, Homo sapiens, UniProt Q92794, residues 1-85)", "technique": "protein binding microarray", "form": "double-stranded DNA, one strand shown", "matrix": "in vitro", "tested at": "not given", "setting": "8-mer, flanks averaged, mean of 2 arrays, mostly near background", "baseline": "not given", "reading": "higher = stronger binding", "Construct (chain)": "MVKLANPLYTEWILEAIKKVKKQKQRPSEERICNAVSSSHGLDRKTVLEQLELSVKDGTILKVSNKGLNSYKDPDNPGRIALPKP"}
{"Strand": "AATTGGCG", "E-score": 0.0457}
{"Strand": "AATACGGG", "E-score": 0.177}
{"Strand": "AATAATTG", "E-score": -0.105}
{"Strand": "GATTGGCC", "E-score": -0.0266}
{"Strand": "CGTTTTAC", "E-score": 0.00554}
{"Strand": "CACGACCC", "E-score": -0.115}
{"Strand": "CCCTCATA", "E-score": -0.248}
{"data": "Series 2", "target": "Phosphate system positive regulatory protein PHO4, full length, GST-tagged (PHO4, Saccharomyces cerevisiae, UniProt P07270, residues 1-312)", "technique": "competition protein-binding microarray", "form": "double-stranded DNA, one strand shown", "matrix": "in vitro", "tested at": "2 µM", "setting": "whole 60-bp probe, lowest competitor level", "added": "Cbf1 competitor, 0.05 µM", "reading": "higher = stronger binding", "Target sequence (chain)": "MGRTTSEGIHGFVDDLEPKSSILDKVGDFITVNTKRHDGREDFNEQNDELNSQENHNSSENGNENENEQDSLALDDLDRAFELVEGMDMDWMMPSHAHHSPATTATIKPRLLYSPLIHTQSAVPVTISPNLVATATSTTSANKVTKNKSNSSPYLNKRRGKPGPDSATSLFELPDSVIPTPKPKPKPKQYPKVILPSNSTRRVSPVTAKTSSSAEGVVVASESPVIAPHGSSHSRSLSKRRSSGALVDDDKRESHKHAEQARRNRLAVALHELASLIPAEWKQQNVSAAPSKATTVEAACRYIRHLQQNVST"}
{"Strand": "AAATTACTAAGTTGTCACATAACTTACCCCGTATGAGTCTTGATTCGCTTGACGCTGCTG", "fluorescence intensity": "3640 a.u."}
{"Strand": "CGTCCTAGTGATTGTCACGGAACTTCCATGAGGAAGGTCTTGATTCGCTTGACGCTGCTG", "fluorescence intensity": "4620 a.u."}
{"Strand": "AAAGCGGTAATTTGACCCGTGGGTGCAGATATCTATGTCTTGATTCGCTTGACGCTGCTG", "fluorescence intensity": "9700 a.u."}
{"Strand": "CGCTTATACAAAAGGAACGTGATGGGGACATTATTTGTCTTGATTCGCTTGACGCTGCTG", "fluorescence intensity": "13500 a.u."}
{"Strand": "CTTCTGTAAATTTGCTGCGTGGGTGGACGCGCCCCGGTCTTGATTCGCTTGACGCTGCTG", "fluorescence intensity": "7790 a.u."}
{"Strand": "CTTCTGTAAATTTGAACCGTGGGTGGACGCGCCCCGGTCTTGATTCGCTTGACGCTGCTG", "fluorescence intensity": "7110 a.u."}
{"Strand": "AAATTACTAAGTTTTCACGTGCTCTACCCCGTATGAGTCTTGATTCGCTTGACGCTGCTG", "fluorescence intensity": "15200 a.u."}
{"data": "Series 3", "target": "RING finger protein unkempt homolog, zinc fingers 1-6, GST-SBP tag (UNK, Homo sapiens, UniProt Q9C0B0, residues 30-357)", "technique": "RNA Bind-n-Seq", "form": "RNA", "matrix": "in vitro", "tested at": "not given", "setting": "RNA with constant flanks, human-mouse chimeric sites, ends assumed", "baseline": "input RNA pool", "reading": "higher = stronger binding", "chain of UniProt Q9C0B0 (30-357, looked up)": "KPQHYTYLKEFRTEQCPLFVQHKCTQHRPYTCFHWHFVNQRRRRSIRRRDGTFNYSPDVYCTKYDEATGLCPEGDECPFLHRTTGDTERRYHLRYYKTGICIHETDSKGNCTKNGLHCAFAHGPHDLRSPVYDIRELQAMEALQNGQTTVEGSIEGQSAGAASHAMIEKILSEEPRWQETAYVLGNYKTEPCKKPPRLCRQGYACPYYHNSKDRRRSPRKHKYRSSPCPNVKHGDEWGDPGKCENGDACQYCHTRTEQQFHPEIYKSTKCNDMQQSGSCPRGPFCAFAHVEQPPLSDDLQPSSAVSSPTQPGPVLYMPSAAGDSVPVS"}
{"Strand": "GGGAGUUCUACAGUCCGACGAUCGGCCUGGGACCGUCCUGGGCUAGUACAAAUAGCGGCAUGGAGGCUCAGAGAGGAAAGUUGUUAGUGGGAGGCAGUGGUAGAGGCCGUCAUGUACGGUCCUUUACUCGAUAGAUGUGUUCUCAACAGAGGAUUGAGCAUCA", "bound/input enrichment [ratio]": 0.63}
{"Strand": "GGGAGUUCUACAGUCCGACGAUCGAGCCCAGCCGGCAGUUUGUAAAGGACUCAAUUCGGCUGGUUAAAAGAUGCACUAAACCCGACAGAAAAGAAUUCCAGAAGAUUGCCAUGGCUACAGCAAUAGGAUUUGCUAUCAUGGGACAACAGAGGAUUGAGCAUCA", "bound/input enrichment [ratio]": 0.119}
{"Strand": "GGGAGUUCUACAGUCCGACGAUCUUUGUAUUUAUGCUAAGCACGCGUGCUGGUGGUCUGGGCAUCAAUCUUGCGACUGCUGAUGUAGUCAUUUUAUAUGACUCAGAUUGGAAUCCGCAAGUUGAUCUUCAGGCUAUGGACCGUCAACAGAGGAUUGAGCAUCA", "bound/input enrichment [ratio]": 0.113}
{"Strand": "GGGAGUUCUACAGUCCGACGAUCCUGAAAAACACAGAUAUCAAAGUUGUUGACUUUGGAAGUGCAACGUAUGAUGAUGAACAUCACAGUACUUUGGUGUCUACCCGGCACUACAGGGCUCCCGAGGUCAUUUUGGCUUUAGGUCAACAGAGGAUUGAGCAUCA", "bound/input enrichment [ratio]": 0.393}
{"data": "Further values, each from its own experiment"}
{"Molecule": "PhoQ, residues 284 288 289 292 302 303 SSCLAV", "target": "PhoP, residues 12 14 15 18 19 IFFTR (Escherichia coli, UniProt P23836)", "test": "Sort-seq, refers to: YFP reporter", "test system": "E. coli", "setting": "PhoQ-PhoP variant library, added: 10 µM Mg2+", "scale": "baseline: high Mg2+ state, higher = stronger signaling", "endpoint": "fold induction", "result": 4.56}
{"note": "For quick reference, copied from above (series 2):"}
{"Strand": "AAAGCGGTAATTTGACCCGTGGGTGCAGATATCTATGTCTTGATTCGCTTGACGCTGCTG", "fluorescence intensity": "9700 a.u."}
